Experimental data of several laboratories.
Every numbered part comes from another study and shows a few of its results, in no order.

Series 1
Target: Prothrombin, mature alpha-thrombin (F2, Homo sapiens, UniProt P00734)
Technique: aptamer microarray, sandwich
Molecule type: DNA with 2'F-ANA
Sample: in vitro
Tested at: 200 nM
Notes: whole 15-mer aptamer, many near background
Together with: Cy3 exosite-II aptamer, 400 nM
Reading: higher = stronger binding
Oligonucleotide: GGTTGGTGTGGTTGG
For `2'F-ANA at 1 3 6 7 14`, “mean fluorescence intensity” read 82.9 a.u.
`2'F-ANA at 8 9 10 14 15`: “mean fluorescence intensity” 94.9 a.u.
`2'F-ANA at 7 9 14` — result for “mean fluorescence intensity”: 268 a.u.
Under “mean fluorescence intensity”, `2'F-ANA at 1 5 7 8 12 13` is recorded as 94.7 a.u.
For `2'F-ANA at 1 5 10`, “mean fluorescence intensity” read 81.4 a.u.
`2'F-ANA at 2 5 7 8 12`: “mean fluorescence intensity” 147 a.u.
Under “mean fluorescence intensity”, `2'F-ANA at 2 3 4 5 6 10 11 13 14 15` is recorded as 50.8 a.u.
Under “mean fluorescence intensity”, `2'F-ANA at 1 3 4 6 8 9 11 13` is recorded as 123 a.u.
Under “mean fluorescence intensity”, `2'F-ANA at 1 3 6 8 10 11 12 13 14 15` is recorded as 63.2 a.u.
For `2'F-ANA at 1 2 6 7 8 11 12 13 15`, “mean fluorescence intensity” read 236 a.u.
Under “mean fluorescence intensity”, `2'F-ANA at 4 6 7 9 10 11` is recorded as 80.2 a.u.
Under “mean fluorescence intensity”, `2'F-ANA at 1 2 4 5 6 7 8 9 10 12` is recorded as 68.4 a.u.
Under “mean fluorescence intensity”, `2'F-ANA at 3 4 9 12 13 14` is recorded as 305 a.u.
Under “mean fluorescence intensity”, `2'F-ANA at 1 2 8 9 11` is recorded as 162 a.u.
Under “mean fluorescence intensity”, `2'F-ANA at 3 4 6 7 8 9 10 13 14 15` is recorded as 169 a.u.
`2'F-ANA at 3 10 12 14 15`: “mean fluorescence intensity” 428 a.u.
`2'F-ANA at 7 8 12 13`: “mean fluorescence intensity” 897 a.u.
For `2'F-ANA at 4 5 7 9 10 11 12 14`, “mean fluorescence intensity” read 51.3 a.u.
Under “mean fluorescence intensity”, `2'F-ANA at 4 8 12 13 15` is recorded as 398 a.u.
Under “mean fluorescence intensity”, `2'F-ANA at 3 5 7 8 9 10 15` is recorded as 70.1 a.u.
For `2'F-ANA at 5 7 8 10 13 15`, “mean fluorescence intensity” read 45.8 a.u.
`2'F-ANA at 1 3 4 5 6 7 9 10 12 13`: “mean fluorescence intensity” 48.5 a.u.
`2'F-ANA at 2 3 4 5 6 7 8 12 15` — result for “mean fluorescence intensity”: 218 a.u.

Series 2
Target: Interferon regulatory factor 3, full length, phosphomimetic (IRF3, Homo sapiens, UniProt Q14653, residues 1-427, S386D/S396D/S398D/S402D/T404D/S405D)
Technique: protein-binding microarray
Molecule type: double-stranded DNA, one strand shown
Sample: in vitro
Tested at: 2540 nM top
Notes: 60-bp whole probe
Together with: salmon DNA 0.4 mg/ml
Baseline: random background probes
Reading: higher = stronger binding
Constant ends, left off below: GCCTAGCAC … GTCTTGATTCGCTTGACGCTGCTG
Residues (chain): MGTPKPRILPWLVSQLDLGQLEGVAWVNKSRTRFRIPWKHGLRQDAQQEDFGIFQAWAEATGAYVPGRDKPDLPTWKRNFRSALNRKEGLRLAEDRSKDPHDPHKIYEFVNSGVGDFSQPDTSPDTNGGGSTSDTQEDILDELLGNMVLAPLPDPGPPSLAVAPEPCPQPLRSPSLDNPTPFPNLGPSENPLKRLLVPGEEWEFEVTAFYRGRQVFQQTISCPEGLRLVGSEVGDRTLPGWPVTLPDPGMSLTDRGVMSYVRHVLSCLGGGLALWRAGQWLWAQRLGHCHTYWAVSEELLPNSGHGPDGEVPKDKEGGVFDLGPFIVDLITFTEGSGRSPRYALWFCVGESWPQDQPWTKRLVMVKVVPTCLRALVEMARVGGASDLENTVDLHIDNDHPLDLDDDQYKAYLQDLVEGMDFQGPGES
For `TTCCTTTGCTTTCTCCCAAGGTGCTAG`, “fitted relative affinity” read 1.57 z-score.
Under “fitted relative affinity”, `GACGATTCCAGTGTCGAGACGTGCTAG` is recorded as 0.484 z-score.
`TTAGGACTGGGTATCGGTGAGTGCTAG`: “fitted relative affinity” -0.41 z-score.
For `TTTTTTTTATCAATCATTTTGTGCTAG`, “fitted relative affinity” read 1.43 z-score.
`GACGTACTGGACACTGGGGACGTGCTA`: “fitted relative affinity” -0.483 z-score.
For `AATATGTTCCCTATATAAGGGTGCTAG`, “fitted relative affinity” read 2.22 z-score.
For `TTAGGTATCGACTTTTGGTTAGTGCTA`, “fitted relative affinity” read 0.428 z-score.
`TTAGGGATCGACTTTCGGTTAGTGCTA`: “fitted relative affinity” 1.24 z-score.
`GACGGTTTCCGTCTCGGGACGTGCTAG` — result for “fitted relative affinity”: 7.41 z-score.
Under “fitted relative affinity”, `TCACTTCTTTTTTATTCTACTGTGCTA` is recorded as 2.04 z-score.
`GACGGTATGGACACTGGGGACGTGCTA`: “fitted relative affinity” -0.356 z-score.
`TCATCTTTATGCACTCTTACTGTGCTA` — result for “fitted relative affinity”: 1.01 z-score.
For `TTAGATCTCAGTCTCAATTAGTGCTAG`, “fitted relative affinity” read 0.56 z-score.
Under “fitted relative affinity”, `GACGATAACGGGTTTCGAGACGTGCTA` is recorded as 0.584 z-score.
For `ACCCGAGACACCGCCCCTTTGTGCTAG`, “fitted relative affinity” read -0.372 z-score.
`GACGGACTGGGGTATCGTGACGTGCTA` — result for “fitted relative affinity”: -0.907 z-score.
For `GGCGGTCTCCTTTTCCTGACGTGCTAG`, “fitted relative affinity” read 4.42 z-score.
Under “fitted relative affinity”, `TCATGTCTGGGCTTTTTCACTGTGCTA` is recorded as -0.414 z-score.
Under “fitted relative affinity”, `GCTGGGTTTTCTTGGCACAGGTGCTAG` is recorded as -0.533 z-score.

Series 3
Target: Centromere-binding protein 1, full length, N-terminal tag (CBF1, Saccharomyces cerevisiae, UniProt P17106, residues 1-351)
UniProt P17106, sequence (whole entry, looked up): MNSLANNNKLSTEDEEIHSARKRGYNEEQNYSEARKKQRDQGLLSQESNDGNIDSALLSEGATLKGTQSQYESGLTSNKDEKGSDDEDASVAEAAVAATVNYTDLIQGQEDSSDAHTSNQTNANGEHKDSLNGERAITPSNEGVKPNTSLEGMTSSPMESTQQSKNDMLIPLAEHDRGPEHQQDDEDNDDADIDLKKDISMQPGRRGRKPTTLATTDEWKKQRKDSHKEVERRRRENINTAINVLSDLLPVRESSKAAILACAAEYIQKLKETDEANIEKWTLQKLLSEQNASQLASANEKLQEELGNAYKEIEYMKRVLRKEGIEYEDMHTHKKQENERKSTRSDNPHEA
Technique: protein-binding microarray
Molecule type: double-stranded DNA, one strand shown
Sample: in vitro
Tested at: 0.8 µM
Notes: whole 60-bp probe, no competitor
Reading: higher = stronger binding
Constant ends, left off below: … GTCTTGATTCGCTTGACGCTGCTG
The fluorescence intensity of `TGTACGAAGCTATTAAGCGTGCGTATAGTAGTTAGG` is reported as 505 a.u.
For `GAATCTATCATGCCTGACGTTCTCGAACGATACTAG`, the fluorescence intensity was 531 a.u.
With `GAACTCTTTCCATCTGCCGTGACAGGGAAGCCTTAG` the fluorescence intensity was 569 a.u.
For `GAATTTTTATGTCCTCACGTTACACCGCATGTGTAG`, the fluorescence intensity was 734 a.u.
`CTATAATTTTTCTCCTTCGTGACCTCGGAGCTGTTC` has a fluorescence intensity of 647 a.u.
`GAATACGACTCCCTGCACATGGTTGCTATTTTTTAG` has a fluorescence intensity of 767 a.u.
`CTACTACCACAAATGCACGTTTCGCGATTACTGTTC` has a fluorescence intensity of 608 a.u.
For `GAACTTGAAATGGACTATGTCACCATTAGATCCTAG`, the fluorescence intensity was 520 a.u.
`CCTAACTACTATATACACACGTCATAGCTTCGTACA` gave a fluorescence intensity of 550 a.u.
`GAAAATATATAAACAGGTGAGATAGAAAAGAAATAG` gave a fluorescence intensity of 600 a.u.
For `CTAAGTAAAAAAAGTCACGCAATAAGCTCTCAATTC`, the fluorescence intensity was 849 a.u.
For `GAACCTATTATTGGTCATGATGCCACTTTTTACTAG`, the fluorescence intensity was 707 a.u.
`CTAGAAATCTTAGGACATCAGAAATGTACGTAGTTC` gave a fluorescence intensity of 475 a.u.
`CTATTTTCATTCCGTGGTGCGTGATCTGATGAGTTC` gave a fluorescence intensity of 1460 a.u.
`GAATCGGTTTATTGTCTCGTGGTCATTTGCGTTTAG` gave a fluorescence intensity of 1050 a.u.
The fluorescence intensity of `TGTACGAAGCTATATCTCGTGAATATAGTAGTTAGG` is reported as 587 a.u.
The fluorescence intensity of `TGTACGAAGCTATTGATCATTCCTATAGTAGTTAGG` is reported as 528 a.u.
For `CTAACGCCAGAGCTTCATGAGACCAAGGAAGGATTC`, the fluorescence intensity was 523 a.u.
`GAATTCATTGTCTATCAGGAGAAGAGATCGTATTAG` gave a fluorescence intensity of 545 a.u.

Series 4
Target: Histone acetyltransferase KAT6A, winged helix 2, GST fusion (KAT6A, Homo sapiens, UniProt Q92794, residues 85-181)
Technique: protein binding microarray
Molecule type: double-stranded DNA, one strand shown
Sample: in vitro
Tested at: not given
Notes: 8-mer, flanks averaged, mean of 2 arrays, mostly near background
Baseline: not given
Reading: higher = stronger binding
Construct (chain): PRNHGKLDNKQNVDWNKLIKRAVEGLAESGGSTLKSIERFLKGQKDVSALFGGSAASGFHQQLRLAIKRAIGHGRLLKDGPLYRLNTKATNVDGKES
`AACCCTCG` gave an E-score of 0.0023.
`ACGAGTGA` gave an E-score of -0.105.
For `GTGGTAAC`, the E-score was 0.0434.
For `ACTCTCCA`, the E-score was -0.0613.
`CACGTTCC` has an E-score of -0.15.
For `AGCGAGAG`, the E-score was 0.0294.
With `AGGTAGGG` the E-score was -0.0886.
With `AGCACCCT` the E-score was -0.00607.
The E-score of `CGAGCCTC` is reported as -0.0471.
With `AATGCCTC` the E-score was 0.0381.
`CAAACTTA` has an E-score of -0.163.
`CGCGTCAA` gave an E-score of -0.109.
For `CTATCCGC`, the E-score was 0.208.
`CTTCCACA` gave an E-score of 0.0795.
The E-score of `AAAAGTAT` is reported as -0.0102.
`TCAGTTAA` has an E-score of -0.105.
The E-score of `AGGAGTCA` is reported as -0.0325.
For `GGAAGATA`, the E-score was -0.0522.
With `GCAACAGA` the E-score was 0.0929.
`CCAAGGAG` gave an E-score of -0.023.
With `CAAAAGCC` the E-score was 0.061.
The E-score of `GTAGTCAA` is reported as -0.0608.
For `AGTGTGCC`, the E-score was 0.101.

A few entries again (series 3):
`CTATAATTTTTCTCCTTCGTGACCTCGGAGCTGTTC` has a fluorescence intensity of 647 a.u.
`GAATACGACTCCCTGCACATGGTTGCTATTTTTTAG` has a fluorescence intensity of 767 a.u.
`CTACTACCACAAATGCACGTTTCGCGATTACTGTTC` has a fluorescence intensity of 608 a.u.
For `GAACTTGAAATGGACTATGTCACCATTAGATCCTAG`, the fluorescence intensity was 520 a.u.
`CCTAACTACTATATACACACGTCATAGCTTCGTACA` gave a fluorescence intensity of 550 a.u.
`GAAAATATATAAACAGGTGAGATAGAAAAGAAATAG` gave a fluorescence intensity of 600 a.u.
For `CTAAGTAAAAAAAGTCACGCAATAAGCTCTCAATTC`, the fluorescence intensity was 849 a.u.
For `GAACCTATTATTGGTCATGATGCCACTTTTTACTAG`, the fluorescence intensity was 707 a.u.
`CTAGAAATCTTAGGACATCAGAAATGTACGTAGTTC` gave a fluorescence intensity of 475 a.u.
`CTATTTTCATTCCGTGGTGCGTGATCTGATGAGTTC` gave a fluorescence intensity of 1460 a.u.
`GAATCGGTTTATTGTCTCGTGGTCATTTGCGTTTAG` gave a fluorescence intensity of 1050 a.u.
The fluorescence intensity of `TGTACGAAGCTATATCTCGTGAATATAGTAGTTAGG` is reported as 587 a.u.
The fluorescence intensity of `TGTACGAAGCTATTGATCATTCCTATAGTAGTTAGG` is reported as 528 a.u.
